Results of several laboratories.
A part holds a random share of what one study measured.

Block 1 — method: protein-binding microarray; molecule type: double-stranded DNA, one strand shown; sample: in vitro; tested at: 940 nM top; notes: 60-bp whole probe; added: salmon DNA 0.4 mg/ml; baseline: random background probes; reading: higher = stronger binding; endpoint: fitted relative affinity; shared flanks, not repeated: GCCTAGCAC … GTCTTGATTCGCTTGACGCTGCTG
Target: Interferon regulatory factor 5, full length, phosphomimetic (IRF5, Homo sapiens, UniProt Q13568-2, residues 1-514, S451D/S453D/S456D/S462D)
TTAGGTATCCTACTACTTTAGTGCTAG: -0.0732 z-score
TCAAGGTTTTCTCTGGTACTGTGCTAG: 0.473 z-score
GACGGACTGCTTCGCCTGACGTGCTAG: -0.361 z-score
TTAGATCTCAGACCGGATTAGTGCTAG: -0.273 z-score
GACGGTTTCGACACGGGGGACGTGCTA: 8.97 z-score
TTAGGTTACCTTATCCTTTAGTGCTAG: -0.205 z-score
TACGATTTCAGTTCCGAGACGTGCTAG: 0.628 z-score
TTAGAACTGAGTCGCGATTAGTGCTAG: 0.0446 z-score
TCAGCATTCCCTTTCTCACTGTGCTAG: 1.31 z-score
TCACATTTTTTTTGCAAACTGTGCTAG: 1.01 z-score
TTAGGTTTCCTATTCCTTTAGTGCTAG: 1.53 z-score

Block 2 — method: protein binding microarray; molecule type: double-stranded DNA, one strand shown; sample: in vitro; tested at: not given; baseline: not given; reading: higher = stronger binding; endpoint: E-score
Target: Histone acetyltransferase KAT6A, winged helix 1, GST fusion (KAT6A, Homo sapiens, UniProt Q92794, residues 1-85)
Notes: 8-mer, flanks averaged, mean of 2 arrays, mostly near background
Construct (chain): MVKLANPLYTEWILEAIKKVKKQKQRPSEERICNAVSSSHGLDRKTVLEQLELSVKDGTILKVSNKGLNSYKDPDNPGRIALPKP
GCTACTTA: -0.136
AGAGCACC: -0.0694
TCCACCCA: -0.191
AGCATCTA: 0.0409
GCAGTCCA: -0.0154
CCTCAAGG: -0.236
CAGGTTCC: -0.0412
CGGTACCC: 0.237
CACATGAA: -0.116
CCATATGC: -0.00286
ACGCATCA: 0.0759

Block 3 — method: RNA Bind-n-Seq; molecule type: RNA; sample: in vitro; tested at: 365 nM; baseline: no-protein control; reading: higher = stronger binding; endpoint: RBNS enrichment (R)
Target: RNA binding protein fox-1 homolog 2, RRM domain, GST-SBP tag (RBFOX2, Homo sapiens, UniProt O43251-10, residues 100-194)
Notes: natural RNA segment, single round, ends assumed
Residues (chain): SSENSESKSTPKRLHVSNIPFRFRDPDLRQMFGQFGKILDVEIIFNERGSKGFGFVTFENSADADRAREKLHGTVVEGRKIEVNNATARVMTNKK
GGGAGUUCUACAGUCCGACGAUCUUGCCCACACCUCCUCCCAUUUGCUGGGGGAGCUUUGGCCAAUUCACUCCUUUCUAGGUCUUAGUUUUCCCAUGUACACAGGGUCCUCUAGUUGUGAAAAUCACUCAAGAUGGAAUUCUCGGGUGCCAA: 0.277
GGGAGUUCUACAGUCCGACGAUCAGUGCUGCUGGCACGUGGGACGCGGCAGGUGACAGCCGUUCUCAGCAUGUUUUAGAAGCUUGCCUCACAGACUUCCAUGCCUCUCCAUUCAGCCGAUGACUUCAGGGUGUUGGAAUUCUCGGGUGCCAA: 9.19
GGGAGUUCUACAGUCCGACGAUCCUGCCACCCUUGACGCCCUGCUCUGGAUAACAAGACUUUGACUUGGGGAGACCUCUACUGCCUUGGACAACUUUUCUCAUGUUGAAGCCACUGCCUUCACCUUCACCUUCUGGAAUUCUCGGGUGCCAA: 0.99
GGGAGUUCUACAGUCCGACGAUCUAGCAAAUCAUGGAAUGUUCUGAGUCCCUGAGGGUUUACUGUGAAGUGCUGAGGACAGUGUUGACAACUAACUCGUUUUCCUAGAUGGAAACGGAGACAUUGACCCCUCCUGGAAUUCUCGGGUGCCAA: 0.355
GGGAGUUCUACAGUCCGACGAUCGUGCUGUCUAAUAACGUGGUCAUUGGAAUCUAAGGAAACUAGGGUCUGUGGUUAACACCCUGGGAUAAUUGUGAUGGGCAGAUGCGCAGUAAUGGCCUGUGUUGGUAACAUGGAAUUCUCGGGUGCCAA: 0.389
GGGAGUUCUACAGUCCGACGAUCGCUGGGGUAAGCACUAGACCCAAGUAGACUGGACACAAAGGGCUCGCCCAGGGCCCUGGCGCCACCCCCACCCCUUCCCACCAGCUGCUGCUAGCCUCUGUGGUUGUACAUGGAAUUCUCGGGUGCCAA: 0.675
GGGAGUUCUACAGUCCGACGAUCAGUUACAUCAAGUGGCUAGAUCAAAACCUGUAAAGGAGCAAAACUUCCAGAAGCCUCGAGCCCCUCUUGACCUCCUACACCUGCUUUGGAAAGACAUGCACUUUUUAGUUUGGAAUUCUCGGGUGCCAA: 0.332

Single results of other studies
PhoQ, residues 284 288 289 292 302 303 SSYNSA
fold induction (PhoP, residues 12 14 15 18 19 GQALL (Escherichia coli, UniProt P23836); Sort-seq, measured: YFP reporter; E. coli; PhoQ-PhoP variant library, added: 10 µM Mg2+; baseline: high Mg2+ state, higher = stronger signaling): 2.34

For quick reference, copied from above (block 3):
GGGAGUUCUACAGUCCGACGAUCUAGCAAAUCAUGGAAUGUUCUGAGUCCCUGAGGGUUUACUGUGAAGUGCUGAGGACAGUGUUGACAACUAACUCGUUUUCCUAGAUGGAAACGGAGACAUUGACCCCUCCUGGAAUUCUCGGGUGCCAA: 0.355
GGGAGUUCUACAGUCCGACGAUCGUGCUGUCUAAUAACGUGGUCAUUGGAAUCUAAGGAAACUAGGGUCUGUGGUUAACACCCUGGGAUAAUUGUGAUGGGCAGAUGCGCAGUAAUGGCCUGUGUUGGUAACAUGGAAUUCUCGGGUGCCAA: 0.389
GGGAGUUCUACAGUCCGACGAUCGCUGGGGUAAGCACUAGACCCAAGUAGACUGGACACAAAGGGCUCGCCCAGGGCCCUGGCGCCACCCCCACCCCUUCCCACCAGCUGCUGCUAGCCUCUGUGGUUGUACAUGGAAUUCUCGGGUGCCAA: 0.675
